Assay results from different studies.
Every numbered part comes from another study and shows a few of its results, in no order.

Block 1
Target: GDNF-inducible zinc finger protein 1, full length (GZF1, Homo sapiens, UniProt Q9H116, residues 1-711)
Method: protein-binding microarray
Molecule type: hairpin DNA
Medium: in vitro
Concentration: not given
Notes: whole hairpin DNA, median over replicate spots
Baseline: not given
Reading: higher = stronger binding
Endpoint: median fluorescence
Residues (chain): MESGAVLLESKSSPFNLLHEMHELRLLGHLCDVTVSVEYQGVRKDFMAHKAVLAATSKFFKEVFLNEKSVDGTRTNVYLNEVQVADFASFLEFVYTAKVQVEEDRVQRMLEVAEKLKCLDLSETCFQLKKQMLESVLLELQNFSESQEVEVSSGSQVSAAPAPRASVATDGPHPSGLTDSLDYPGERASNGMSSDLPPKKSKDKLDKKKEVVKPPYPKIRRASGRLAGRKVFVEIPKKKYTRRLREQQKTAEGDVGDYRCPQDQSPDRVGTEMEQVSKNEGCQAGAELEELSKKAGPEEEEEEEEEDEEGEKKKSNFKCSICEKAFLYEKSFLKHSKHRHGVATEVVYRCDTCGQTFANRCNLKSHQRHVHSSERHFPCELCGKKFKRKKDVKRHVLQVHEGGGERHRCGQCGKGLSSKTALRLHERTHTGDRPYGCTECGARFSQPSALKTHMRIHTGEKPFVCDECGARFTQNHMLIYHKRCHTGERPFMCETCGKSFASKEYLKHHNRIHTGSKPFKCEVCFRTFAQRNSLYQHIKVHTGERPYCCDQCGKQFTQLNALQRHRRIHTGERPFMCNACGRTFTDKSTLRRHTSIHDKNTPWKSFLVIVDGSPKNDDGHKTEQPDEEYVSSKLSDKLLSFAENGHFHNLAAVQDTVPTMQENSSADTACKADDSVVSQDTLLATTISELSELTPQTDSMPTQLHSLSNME
GAGGCCATTACGGTACTGCCTCCTGGCAGTACCGTAATGGCCTCACACTC: 660 a.u.
GAGGCCATTACCGTAATGCCTCCTGGCATTACGGTAATGGCCTCACACTC: 788 a.u.
GAGGCCATTACGGCAATGCCTCCTGGCATTGCCGTAATGGCCTCACACTC: 530 a.u.
GAGGCCATTACGCGAATGCCTCCTGGCATTCGCGTAATGGCCTCACACTC (5mC at 13 31): 508 a.u.
GAGGCCATTACGGCGATGCCTCCTGGCATCGCCGTAATGGCCTCACACTC: 582 a.u.
GAGGCCATTACGCGAATGCCTCCTGGCATTCGCGTAATGGCCTCACACTC: 533 a.u.
GAGGCCGTTACGGTAATGCCTCCTGGCATTACCGTAACGGCCTCACACTC (5mC at 38): 748 a.u.
GAGGCCATTACGGTACGGCCTCCTGGCCGTACCGTAATGGCCTCACACTC (5mC at 28): 666 a.u.
GAGGCCACGACGGTAATGCCTCCTGGCATTACCGTCGTGGCCTCACACTC (5mC at 8 36): 725 a.u.
GAGGCCATCGCGGTAATGCCTCCTGGCATTACCGCGATGGCCTCACACTC: 746 a.u.
GAGGCCATTACGGTGATGCCTCCTGGCATCACCGTAATGGCCTCACACTC (5mC at 30): 600 a.u.
GAGGCCATTACGGTGATGCCTCCTGGCATCACCGTAATGGCCTCACACTC: 528 a.u.
GAGGCCATTCGGGTAATGCCTCCTGGCATTACCCGAATGGCCTCACACTC (5mC at 34): 445 a.u.
GAGGCCATTAGGGTAATGCCTCCTGGCATTACCCTAATGGCCTCACACTC: 351 a.u.
GAGGCCATTACGGTAACGCCTCCTGGCGTTACCGTAATGGCCTCACACTC (5mC at 17): 667 a.u.
GAGGCCATCACGGTAATGCCTCCTGGCATTACCGTGATGGCCTCACACTC (5mC at 9): 619 a.u.
GAGGCCATTACGGTCGTGCCTCCTGGCACGACCGTAATGGCCTCACACTC (5mC at 15): 571 a.u.
GAGGCCATTACGGCGATGCCTCCTGGCATCGCCGTAATGGCCTCACACTC (5mC at 30): 532 a.u.

Block 2
Target: Interferon regulatory factor 7, full length, phosphomimetic (IRF7, Homo sapiens, UniProt Q92985, residues 1-503, S101K/S471D/S472D/S475D/S476D/S477D/S483D/S484D/S487D)
Method: protein-binding microarray
Molecule type: double-stranded DNA, one strand shown
Medium: in vitro
Concentration: 250 nM
Notes: 60-bp whole probe
Together with: salmon DNA 0.4 mg/ml
Baseline: random background probes
Reading: higher = stronger binding
Endpoint: log fluorescence
All sequences stand within: GCCTAGCAC … GTCTTGATTCGCTTGACGCTGCTG
Construct (chain): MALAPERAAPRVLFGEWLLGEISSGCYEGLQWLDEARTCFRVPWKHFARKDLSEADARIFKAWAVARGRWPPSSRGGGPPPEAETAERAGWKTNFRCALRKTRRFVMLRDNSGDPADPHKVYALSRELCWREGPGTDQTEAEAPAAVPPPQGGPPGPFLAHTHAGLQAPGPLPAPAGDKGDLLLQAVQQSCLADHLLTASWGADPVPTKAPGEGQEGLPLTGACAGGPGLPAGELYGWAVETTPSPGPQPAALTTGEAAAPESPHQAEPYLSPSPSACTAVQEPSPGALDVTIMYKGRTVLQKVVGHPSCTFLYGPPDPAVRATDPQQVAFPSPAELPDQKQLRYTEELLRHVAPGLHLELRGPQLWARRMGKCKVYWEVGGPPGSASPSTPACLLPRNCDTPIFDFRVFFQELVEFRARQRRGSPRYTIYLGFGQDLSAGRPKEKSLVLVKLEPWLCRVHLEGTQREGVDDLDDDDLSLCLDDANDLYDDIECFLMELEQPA
GACGGTTTCGGGACTTGGGACGTGCTA: 3.84 z-score
TTAGATTTCAGGCTCGATTAGTGCTAG: 1.45 z-score
TCCAACCTGCTGAATCAAAAGTGCTAG: -0.216 z-score
GACGGTTTCGGACAGGGGACGTGCTAG: 1.96 z-score
GACGGTCTCCTTTTCCTGTCGTGCTAG: 2.09 z-score
AGAGATGTGGGACTCACCTAGTGCTAG: -0.159 z-score
TTAGGATTGGGTATCGGTTAGTGCTAG: 0.884 z-score
TCATATTTAAGAACTATGACTGTGCTA: 0.659 z-score
AACGATATCAGACTGGAGACGTGCTAG: -0.413 z-score
GACGGTTTCGACTATCGGCACGTGCTA: 5.36 z-score
TTAGGTATCGGTATCGATTAGTGCTAG: 2.7 z-score
TTAGGACTGGACTATCGGTAAGTGCTA: -0.292 z-score
TCAGGTATCCTTCTCCTTTAGTGCTAG: 0.455 z-score
TCAAACATCTACAATGGCACTGTGCTA: -0.303 z-score
AAGACCATCCTGTGTCTTAAAGTGCTA: 0.349 z-score
TGATCCAAAAAGTGTGAGAAGTGCTAG: 0.358 z-score
TTAGGACTGTACTTTCGGTTAGTGCTA: 1.67 z-score
AGGCATCTCGGAGATCTCGAAGTGCTA: -0.743 z-score
TTTTTTTTTTTTTTTACTTCGTGCTAG: 0.831 z-score

Block 3
Target: RING finger protein unkempt homolog, zinc fingers 1-6, GST-SBP tag (UNK, Homo sapiens, UniProt Q9C0B0, residues 30-357)
Method: RNA Bind-n-Seq
Molecule type: RNA
Medium: in vitro
Concentration: not given
Notes: RNA with constant flanks, ends assumed
Baseline: input RNA pool
Reading: higher = stronger binding
Endpoint: bound/input enrichment
All sequences stand within: GGGAGUUCUACAGUCCGACGAUC … CAACAGAGGAUUGAGCAUCA
Target sequence (chain): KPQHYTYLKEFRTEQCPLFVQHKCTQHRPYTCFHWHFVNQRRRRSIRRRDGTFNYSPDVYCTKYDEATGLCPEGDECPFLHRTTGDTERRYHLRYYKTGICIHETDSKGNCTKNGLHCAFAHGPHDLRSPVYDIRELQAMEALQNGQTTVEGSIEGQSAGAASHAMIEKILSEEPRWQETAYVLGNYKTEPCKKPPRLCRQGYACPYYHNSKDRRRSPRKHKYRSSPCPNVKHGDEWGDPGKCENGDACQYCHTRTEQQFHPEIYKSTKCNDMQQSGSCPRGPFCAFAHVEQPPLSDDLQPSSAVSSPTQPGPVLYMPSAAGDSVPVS
AUAGAGGCAGCACCCGAGUCCCAGAUGAUGCCAGCAAGCGUCUUAACUGGGAACGUUAUCACCGAAACAAAGUUUUUUGACGACGAUCUUCUUGUAAGCACAUCCAGAGUGAGACUUUUC: 0.347 ratio
GCAGAACUCCUAAAAAAUGCAGAUGAAUUAGUCAAACAGAAAAUUCAUCCCACAUCAGUUAUCCGUGGCUAUCGACUUGCUUGCAAGGAAGCAGUGCGUUAUAUCAAUGAAAACCUAAUU: 0.069 ratio
AAUAAGCAUGUUAUGUAUAUUGUCUCGUGUUUUUAUUUUUACACCAUAUUGUAUUACACUUUCCGUAUUCACCAGCAUAAUCACUGUCUGCCUAAAAUAUGCAACUCUUUGCAUUACAAU: 0.345 ratio
CAGGAAACCCAUAUUGAUUUUGUAAUUAAAUGUCAAGCCUGUGGAUUGUUUUGAGCUUGGCCGUUGAUGAGCAUUUCCGUACAGAGGCCUCACCUUGAGCACAGCACUGUCAGGAGGGCG: 0.392 ratio
UUGUCGAAGACUCAACGAAAGACUCCAACCGUUAUUCAUAAACAUUACCAAAUACAUCGCAUCCGACAUUUUUACAUGAGAAAAGUCAAAUUUACUCAACAGAAUUACCAUGAUAGACUU: 1.65 ratio
CAUUCUCUUGCACUGUACAGAACAGAUGACUACUUAGAUCAGCCGUGUUGUGAAACCAUUAACCGAAUUAAACUUUACAGCGAGUCUUUGGCAAGAUACGGUAAAAGCCCGUACCUGUAU: 0.225 ratio
AGUGAAAAUCUACCAGGCUCCUCUUGUGAGGGGCAGUUCCAGUGUGUCCAUGUAGGGUUCCCGCUACAUCGUUCUAGAAGAUAUGAGUUAAUCUCUAAUAAAAGGAAAAUUAAGACUGGG: 0.674 ratio
GACAUUUUGGGUGUUAAGAAGGAAAUGAUCCGGCUAGAUGAAGUUCCCAAUCUGAGUUCCUCCGUAUCCAAUUUCGAUCAGCAGCAGCUUGCUAACUUCUGCAGGAUCCUGGCUGUCACC: 0.158 ratio

Block 4
Target: PABPC1L2, full length, GST fusion (mouse, UniProt A0ABA7IW68)
Method: RNAcompete
Molecule type: RNA
Medium: in vitro
Concentration: 20 nM
Notes: 7-mer, probes averaged, single round
Baseline: mean of 7-mers
Reading: higher = stronger binding
Endpoint: 7-mer Z-score
Residues (chain): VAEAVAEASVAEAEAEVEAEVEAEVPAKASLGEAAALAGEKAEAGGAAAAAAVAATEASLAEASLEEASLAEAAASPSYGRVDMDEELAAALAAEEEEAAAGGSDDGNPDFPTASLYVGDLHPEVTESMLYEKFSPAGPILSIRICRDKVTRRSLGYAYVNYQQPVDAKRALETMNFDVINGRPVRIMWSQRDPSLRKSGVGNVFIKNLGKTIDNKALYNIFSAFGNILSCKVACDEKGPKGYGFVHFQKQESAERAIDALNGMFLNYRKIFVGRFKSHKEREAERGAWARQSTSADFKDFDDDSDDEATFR
UUUUGGU: -0.224
GACAAAC: 0.675
UUUCGAU: -0.26
GCUGAAC: -0.133
UUAGAUA: -0.115
AACGGCC: 0.000733
CAGCUCU: -0.284
GUCGAGU: -0.079
GACGUUU: -0.427
GGCAUCA: 0.222
ACCGUUG: -0.179
GCGAGCG: 0.0623
AUCGUAA: -0.148
GACGGAG: -0.012
GCCCGCA: -0.213
AUUUUUA: -0.0428
UCUAGAU: -0.199
UAACUUA: -0.0573
GCCUGUA: -0.126
UUUGCAU: -0.282
CAGUUGU: -0.338
UUACACG: -0.106
GUAUAAA: 2.6
AAUAUUA: 0.383
GUCAGAC: -0.289

Some of these lines once more (block 1):
GAGGCCATTACGGTACGGCCTCCTGGCCGTACCGTAATGGCCTCACACTC (5mC at 28): 666 a.u.
GAGGCCATTAGGGTAATGCCTCCTGGCATTACCCTAATGGCCTCACACTC: 351 a.u.
GAGGCCATTACGGTACTGCCTCCTGGCAGTACCGTAATGGCCTCACACTC: 660 a.u.
GAGGCCATCACGGTAATGCCTCCTGGCATTACCGTGATGGCCTCACACTC (5mC at 9): 619 a.u.
GAGGCCATTACGGTAACGCCTCCTGGCGTTACCGTAATGGCCTCACACTC (5mC at 17): 667 a.u.
GAGGCCATTACGCGAATGCCTCCTGGCATTCGCGTAATGGCCTCACACTC (5mC at 13 31): 508 a.u.
GAGGCCGTTACGGTAATGCCTCCTGGCATTACCGTAACGGCCTCACACTC (5mC at 38): 748 a.u.
GAGGCCATTACCGTAATGCCTCCTGGCATTACGGTAATGGCCTCACACTC: 788 a.u.
GAGGCCACGACGGTAATGCCTCCTGGCATTACCGTCGTGGCCTCACACTC (5mC at 8 36): 725 a.u.
GAGGCCATTACGCGAATGCCTCCTGGCATTCGCGTAATGGCCTCACACTC: 533 a.u.
GAGGCCATCGCGGTAATGCCTCCTGGCATTACCGCGATGGCCTCACACTC: 746 a.u.
GAGGCCATTCGGGTAATGCCTCCTGGCATTACCCGAATGGCCTCACACTC (5mC at 34): 445 a.u.
